# Measured values from different studies.
# Each line is one published result; not all experiments were run side by side. “And” joins repeats or separate records; there may be more than shown.
Compound,cell line,test,conditions,how to read,viability
CCOc1ccc(CN2CC[C@H]2C(=O)NC)cc1-c1cccc(C(=O)NC[C@@H]2COC(C)(C)O2)c1,Huh-7-ACE2,CellTiter-Glo,"0.00153 µM, 48 h, unit not given",baseline: DMSO,1.07 and 1.15 and 0.997
Cc1ccc(N(C)CCN2CCOCC2)cc1C(=O)N[C@H](C)c1cc(-c2cnn(C)c2)nc2ccccc12,Vero E6,,31.25 µM,,94.4% and 96.2% and 93.5%
CNC(=O)CC1CN(C(=O)c2ccc(C(F)(F)F)cn2)CCN1C(=O)c1cccnn1 (stereo not shown),Huh-7-ACE2,CellTiter-Glo,"0.00153 µM, 48 h, unit not given",baseline: DMSO,1.21 and 1.11 and 0.98
CCCCCCCCCCCCCCCC(=O)OCC(CSC[C@H](N)C(=O)NCC(=O)N[C@@H](CC(=O)O)C(=O)N1CCC[C@H]1C(=O)N[C@@H](CCCCN)C(=O)N[C@@H](Cc1c[nH]cn1)C(=O)N1CCC[C@H]1C(=O)N[C@@H](CCCCN)C(=O)N[C@@H](CO)C(=O)N[C@@H](Cc1ccccc1)C(=O)O)OC(=O)CCCCCCCCCCCCCCC (stereo partly shown),HFF-1,,"1 µg/mL, 48 h",,89.9%
NC(=O)N/N=C/c1ccc(OCc2cccc(F)c2)cc1,IMR-32,MTT,"300 µg/mL, 24 h",baseline: untreated control,49.7%
CCCCCCCCCCCCCCCC(=O)N[C@@H](CSCC(COC(=O)CCCCCCCCCCCCCCC)OC(=O)CCCCCCCCCCCCCCC)C(=O)N[C@@H](CO)C(=O)N[C@@H](CCCCN)C(=O)N[C@@H](CCCCN)C(=O)N[C@@H](CCCCN)C(=O)N[C@@H](CCCCN)C(=O)O (stereo partly shown),HFF-1,,"1 µg/mL, 48 h",,96.9%
CCn1ccc(-c2cc([C@@H](C)NC(=O)c3cc(OC[C@H]4CCCN4C)ccc3C)c3ccccc3n2)n1,Vero E6,,7.812 µM,,97% and 90.5% and 101%
CCCCCCCCCCCCCCCC(=O)OCC(CSC[C@H](N)C(=O)N[C@@H](CO)C(=O)N[C@@H](CCCCN)C(=O)N[C@@H](CCCCN)C(=O)N[C@@H](CCCCN)C(=O)N[C@@H](CCCCN)C(=O)O)OC(=O)CCCCCCCCCCCCCCC (stereo partly shown),HFF-1,,"10 µg/mL, 48 h",,100%
NC(=S)N/N=C/c1ccc(OCc2cccc(F)c2)cc1,IMR-32,MTT,"500 µg/mL, 24 h",baseline: untreated control,19.1%
CNC(=O)C[C@H](Cc1ccc(F)cc1)NC(=O)[C@@H](Cc1ccc(Cl)cc1Cl)NC(=O)[C@H](N)Cc1ccccc1[N+](=O)[O-],Huh-7-ACE2,CellTiter-Glo,"12.5 µM, 48 h, unit not given",baseline: DMSO,0.812 and 0.883 and 1.01
Cc1ccc(OC[C@@H]2CCN2C)cc1C(=O)N[C@H](C)c1cc(-c2cnn(C)c2)nc2ccccc12,African green monkey cells,,31.25 µM,,93.8%
NC(=S)N/N=C/c1ccc(OCc2ccccc2)cc1,IMR-32,MTT,"300 µg/mL, 24 h",baseline: untreated control,42.1%
CCn1ccc(-c2cc([C@@H](C)NC(=O)c3cc(OC[C@@H]4CCN4C)ccc3C)c3ccccc3n2)n1,African green monkey cells,,15.62 µM,,98.2%
O=c1n(CCNCCOS(=O)(=O)c2ccccc2)c(=O)n(S(=O)(=O)c2ccccc2)c(=O)n1S(=O)(=O)c1ccccc1,HUVEC,"cell growth or viability, MTT","100 µg/mL, 72 h",,13.3%
CCn1ccc(-c2cc([C@@H](C)NC(=O)c3cc(OCCN(C)C)ccc3C)c3ccccc3n2)n1,Vero E6,,7.812 µM,,102% and 101% and 108%
CNC(=O)C[C@H](Cc1ccccc1)NC(=O)[C@@H](Cc1ccc(Cl)cc1Cl)NC(=O)[C@H](N)Cc1ccccc1C#N,Huh-7-ACE2,CellTiter-Glo,"3.125 µM, 48 h, unit not given",baseline: DMSO,0.876 and 0.904 and 0.81
